Experimental data collected from several papers.
Protocols differ between the studies behind these lines.
MTOR: Serine/threonine-protein kinase mTOR (MTOR, Homo sapiens, UniProt P42345)
MTOR with FKBP12: Serine/threonine-protein kinase mTOR, with FKBP12 (MTOR, Homo sapiens, UniProt P42345)

`COc1cc(Nc2nccc(-c3cnn4nc(OC)ccc34)n2)cc(C(F)(F)F)c1` gave a remaining binding of 66% (MTOR; binding, competition with immobilised ligand; 1 µM).
The remaining activity of `O=C=[N][Ru-4]123([n]4c5ccc(O)cc5c5c6c(c7cc(F)c[n+]1c7c54)C(=O)NC6=O)[S+]1CC[S+]2CC[S+]3CC1` (stereo not drawn) is reported as 108% (MTOR with FKBP12; enzyme activity; 100 nM, human enzyme, added: 10 µM ATP; reference: untreated).
For `CS(=O)(=O)Nc1cccc(-c2csc3cnc(Nc4ccc(N5CCN(CCCCCOc6cccc7c6C(=O)N(C6CCC(=O)NC6=O)C7=O)CC5)cc4)nc23)c1` (stereo not drawn), the inhibition was -17.7% (MTOR; kinase activity, cell-based; MOLT-4; 1 µM).
With `CCn1cc(C(=O)O)c(=O)c2c(N)c(F)c(NC3CCCCC3)cc21` the inhibition was -7.3% (MTOR; kinase activity; 0.1 µM).
`Cc1cccc(O[C@H]2CCC[C@@H](C(C)CNCc3ccncc3)C2)c1` (relative stereo) gave an inhibition of 3% (MTOR; enzyme activity, inhibitor; 1 µM).
With `CC(=O)N1c2ccc(-c3ccc(CNC(=O)c4cn5cc(-c6cnc(N)nc6)nc(N6CCOCC6)c5n4)cc3)cc2CC[C@@H]1C` the remaining activity was 108% (MTOR; enzyme activity, inhibitor, radiometric; 0.1 µM).
`COc1ccc(NC(=O)Nc2ccc3c(c2)C(=O)N(C(C)CO)CC(C)C(CN(C)Cc2ccc4c(c2)OCO4)O3)cc1` (stereo not drawn) has a remaining activity of 125% (MTOR with FKBP12; kinase activity, KinaseProfiler; 0.03 µM, species human; reference: control).
`Nc1ncc2c(n1)-c1c([nH]c3ccc(C4=CCOCC4)cc13)CCC2` has a remaining binding of 92% (MTOR; binding, competition with immobilised ligand; 1 µM).
With `CCN1CCN(Cc2ccc(C(=O)Nc3ccc(C)c(NCc4cnc5[nH]ccc5c4OC)c3)cc2C(F)(F)F)CC1` the remaining binding was 100% (MTOR; binding, competition with immobilised ligand; 1 µM).
The inhibition of `Cc1nc2c(F)cc(-c3nc(Nc4ccc(CNC(=O)CCCCCCC(=O)NO)cc4)ncc3F)cc2n1C(C)C` is reported as 55% (MTOR with FKBP12; kinase activity; 1 µM).
With `O=C(Cc1ccc(OCc2ccccc2)cc1)NC1(C(=O)O)CCN(C(=O)c2ccc(-c3cccc(Cl)c3)cc2)CC1` the remaining activity was 100% (MTOR with FKBP12; kinase activity, inhibitor; 10 µM, added: ATP at Km).
`COc1c(Cl)cccc1Nc1c(-c2ccncc2C#C[C@@]2(C)CCCN2C(=O)/C=C/CN(C)C)[nH]c2c1C(=O)NCC2` gave a remaining binding of 100% (MTOR; cell-free assay, competition with immobilised ligand; 3 µM).
For `CN1CC[C@@H](COc2cnc(C#N)cc2-c2ccn3nc(NC(=O)C4CC4)cc3c2)C1`, the inhibition was 4% (MTOR; enzyme activity, inhibitor; 1 µM).
With `C=CC(=O)N1Cc2nc(-c3cc(-c4cc(Cl)cnc4Cl)c(F)cc3F)n(-c3ccncn3)c2C1` the inhibition was -1.7% (MTOR; enzyme activity, inhibitor; 1 µM).
For `CNC(=O)C[C@H](Cc1ccc(C#N)cc1)NC(=O)c1cc(-c2ccc(CN[C@H](C)c3ccc(C)cc3)o2)ccc1Cl`, the remaining activity was 109% (MTOR with FKBP12; enzyme activity, KinaseProfiler panel; 1 µM).

Repeated from above:
With `CC(=O)N1c2ccc(-c3ccc(CNC(=O)c4cn5cc(-c6cnc(N)nc6)nc(N6CCOCC6)c5n4)cc3)cc2CC[C@@H]1C` the remaining activity was 108% (MTOR; enzyme activity, inhibitor, radiometric; 0.1 µM).
`COc1ccc(NC(=O)Nc2ccc3c(c2)C(=O)N(C(C)CO)CC(C)C(CN(C)Cc2ccc4c(c2)OCO4)O3)cc1` (stereo not drawn) has a remaining activity of 125% (MTOR with FKBP12; kinase activity, KinaseProfiler; 0.03 µM, species human; reference: control).
